Published values from different studies.
Compare with care: the assays were run in different laboratories. “And” joins repeats or separate records; there may be more than shown. ± gives the spread as reported.

SMILES	assay	system	setting	how to read	measurement	result
N#[11C]c1ccc(-c2csc(NN=C3CCCC3)n2)cc1		C57BL/6 mouse, male	intravenous, 3 MBq, 1 min		uptake in adrenal gland	15.6 ± 7.51 %ID/g
C=Cc1c(C)c2cc3nc(c(CC(=O)[O-])c4[n-]c(cc5nc(cc1[n-]2)C(C)=C5CC)c(C)c4C(=O)[O-])C(CCC(=O)[O-])C3C.[Cu+2].[Na+].[Na+].[Na+] (stereo not shown)		Wistar rat, male	oral, 1000 mg/kg daily, 28 days		serum ALT	58.3 ± 13.9 U/L
CC[C@H](C)[C@H](NC(=O)[C@H](CCCCN)NC(=O)CNC(=O)[C@H](CC(C)C)NC(=O)[C@H](Cc1ccccc1)NC(=O)[C@H](CCCCN)NC(=O)[C@H](CO)NC(=O)[C@H](Cc1ccccc1)NC(=O)[C@H](Cc1c[nH]c2ccccc12)NC(=O)[C@H](CCC(N)=O)NC(=O)[C@@H](NC(=O)[C@H](Cc1ccccc1)NC(=O)CCCCCNC(=O)CN1CCN(CC(=O)O)CCN(CC(=O)O)CCN(CC(=O)O)CC1)C(C)C)C(=O)N[C@@H](CCC(=O)O)C(=O)N1CCC[C@H]1C(=O)N[C@@H](CC(=O)O)C(=O)N[C@H](C(=O)N[C@@H](CO)C(=O)N[C@@H](CCC(N)=O)C(=O)N[C@H](C(=O)N[C@@H](CCC(N)=O)C(=O)N[C@@H](CC(=O)O)C(=O)N1CCC[C@H]1C(=O)N[C@@H](CC(N)=O)C(=O)N[C@@H](CC(=O)O)C(=O)N[C@@H](CCC(N)=O)C(=O)N[C@@H](Cc1ccc(O)cc1)C(=O)N[C@@H](CCC(=O)O)C(=O)N1CCC[C@H]1C(=O)N[C@@H](Cc1ccccc1)C(=O)O)C(C)C)C(C)C [copper-64 labelled]	dynamic PET	mouse, CT26 tumour, checkpoint inhibitor-treated, tumour	intravenous, 100 µCi/mouse, 3500 s		SUVmean	4.34 SUV
CC(C)C[C@H](NC(=O)[C@@H](NC(=O)[C@H](CCCNC(=N)N)NC(=O)[C@H](CCC(N)=O)NC(=O)[C@H](Cc1ccccc1)NC(=O)[C@H](Cc1ccc(O)cc1)NC(=O)[C@H](CC(N)=O)NC(=O)[C@H](Cc1c[nH]c2ccccc12)NC(=O)[C@@H](NC(=O)[C@H](CCCNC(=N)N)NC(=O)[C@H](CCCCN)NC(=O)[C@@H](N)Cc1ccccc1)C(C)C)C(C)C)C(=O)N[C@H](C(=O)N[C@@H](CCCCN)C(=O)N[C@@H](CCCCN)C(=O)N[C@@H](Cc1ccc(O)cc1)C(N)=O)C(C)C	reversed-phase UPLC	C18 column, TFA			elution acetonitrile content	45.3%
CCN(CC)CCOc1ccc(-c2nnn(Cc3ccc(OC)cc3)c2N)cc1		monkey liver microsomes	concentration not given, time not given		remaining compound	43.8%
C/C(=N\OCCCN1CCCCC1)c1ccc(C(F)(F)F)cc1		mouse, plasma	oral, 100 mg/kg once daily, day 1		Cmax	2320 ± 930 ng/mL
O=C(CN1C(=O)C2(CCN(C(=O)c3ccc4[nH]ncc4n3)CC2)c2c(Br)cccc21)NCC(F)(F)F		male C57BL/6 mouse, plasma	intravenous, 2 mg/kg		clearance	24.3 mL/min/kg
COc1cnc2cccc(N3CCc4c(cc(Cn5ccnc5)cc4-c4cn(C)nc4C(F)(F)F)C3=O)c2c1		BALB/c nude mice, MV4-11 xenograft	intraperitoneal, 100 mg/kg, day 35		body weight	24.4 g and 22.3 g and 24.1 g and 22.4 g and 23.4 g
CCc1nn(C)c2nc(-c3ccc(C(=O)O)cc3)nc(NCc3ccccc3)c12		male CD-1 mouse, plasma	intravenous, 1 mg/kg, 1 h		concentration	228 ng/mL
O=C1NC2(CC2)COc2ncc(F)cc2[C@H]2COCCN2c2ccn3ncc1c3n2		Sprague-Dawley rat, female, serum	oral, 20 mg/kg/day, end of recovery, 4-week repeated-dose toxicity		albumin/globulin ratio	2.22 ± 0.26
CSCC[C@H](N)C(=O)N[C@@H](C)C(=O)N[C@@H](Cc1c[nH]c2ccccc12)C(=O)N[C@@H](Cc1c[nH]cn1)C(=O)N[C@@H](CC(=O)O)C(=O)N[C@@H](CC(=O)O)C(=O)N[C@@H](CCC(=O)O)C(=O)N[C@@H](CCC(=O)O)C(=O)N[C@@H](Cc1ccccc1)C(=O)N[C@@H](C)C(=O)N[C@@H](CCCNC(=N)N)C(=O)N[C@@H](CCCNC(=N)N)C(=O)N[C@@H](CCCNC(=N)N)C(=O)N[C@@H](CCCNC(=N)N)C(=O)NCCCCCC(=O)NCCCCC(NC(=O)CCCCCNC(=O)[C@H](CCCNC(=N)N)NC(=O)[C@H](CCCNC(=N)N)NC(=O)[C@H](CCCNC(=N)N)NC(=O)[C@H](CCCNC(=N)N)NC(=O)[C@H](C)NC(=O)[C@H](Cc1ccccc1)NC(=O)[C@H](CCC(=O)O)NC(=O)[C@H](CCC(=O)O)NC(=O)[C@H](CC(=O)O)NC(=O)[C@H](CC(=O)O)NC(=O)[C@H](Cc1c[nH]cn1)NC(=O)[C@H](Cc1c[nH]c2ccccc12)NC(=O)[C@H](C)NC(=O)[C@@H](N)CCSC)C(=O)NCCCCC(NC(=O)C(CCCCNC(=O)CCCCCNC(=O)[C@H](CCCNC(=N)N)NC(=O)[C@H](CCCNC(=N)N)NC(=O)[C@H](CCCNC(=N)N)NC(=O)[C@H](CCCNC(=N)N)NC(=O)[C@H](C)NC(=O)[C@H](Cc1ccccc1)NC(=O)[C@H](CCC(=O)O)NC(=O)[C@H](CCC(=O)O)NC(=O)[C@H](CC(=O)O)NC(=O)[C@H](CC(=O)O)NC(=O)[C@H](Cc1c[nH]cn1)NC(=O)[C@H](Cc1c[nH]c2ccccc12)NC(=O)[C@H](C)NC(=O)[C@@H](N)CCSC)NC(=O)CCCCCNC(=O)[C@H](CCCNC(=N)N)NC(=O)[C@H](CCCNC(=N)N)NC(=O)[C@H](CCCNC(=N)N)NC(=O)[C@H](CCCNC(=N)N)NC(=O)[C@H](C)NC(=O)[C@H](Cc1ccccc1)NC(=O)[C@H](CCC(=O)O)NC(=O)[C@H](CCC(=O)O)NC(=O)[C@H](CC(=O)O)NC(=O)[C@H](CC(=O)O)NC(=O)[C@H](Cc1c[nH]cn1)NC(=O)[C@H](Cc1c[nH]c2ccccc12)NC(=O)[C@H](C)NC(=O)[C@@H](N)CCSC)C(N)=O (stereo partly shown)		C57BL/6 mouse female, small intestine	3 h	relative to: total dose	tissue distribution	15.8%
CC(C)=CCC/C(C)=C\CCn1cc(CC(P(=O)(O)O)P(=O)(O)O)nn1		mouse CD-1	intravenous, 0.3 mg/kg, 8 h	relative to: dose	biliary excretion	0.77%
CCCCCCCCCCCCCCCC(=O)N[C@@H](CCC(=O)NCCOCCOCCC(=O)NCCOCCOCCC(=O)NCCCC[C@H](NC(=O)[C@H](CC(=O)O)NC(=O)[C@H](CC(C)C)NC(=O)[C@H](Cc1ccc(O)cc1)NC(=O)[C@H](CCCCN)NC(=O)[C@H](CO)NC(=O)[C@H](Cc1ccc(O)cc1)NC(=O)[C@H](CC(=O)O)NC(=O)[C@H](CO)NC(=O)[C@@H](NC(=O)[C@H](Cc1ccccc1)NC(=O)[C@@H](NC(=O)CNC(=O)[C@H](CCC(N)=O)NC(=O)[C@@H](CO)NC(=O)[C@@H](N)Cc1c[nH]cn1)[C@@H](C)O)[C@@H](C)O)C(=O)N[C@@H](CCCNC(=N)N)C(=O)N[C@@H](CCCNC(=N)N)C(=O)N[C@@H](C)C(=O)N[C@@H](CCC(N)=O)C(=O)N[C@@H](CC(=O)O)C(=O)N[C@@H](Cc1ccccc1)C(=O)N[C@H](C(=O)N[C@@H](CCC(N)=O)C(=O)N[C@@H](Cc1c[nH]c2ccccc12)C(=O)N[C@@H](CC(C)C)C(=O)N[C@@H](CC(C)C)C(=O)N[C@@H](CC(N)=O)C(=O)N[C@H](C(=O)NCC(=O)NCC(=O)N1CCC[C@H]1C(=O)N[C@@H](CO)C(=O)N[C@@H](CO)C(=O)NCC(=O)N[C@@H](C)C(=O)N1CCC[C@H]1C(=O)N1CCC[C@H]1C(=O)N1CCC[C@H]1C(=O)N[C@@H](CO)C(N)=O)[C@@H](C)O)C(C)C)C(=O)O	measured: ALT	rhesus monkey, male	subcutaneous, 60 µg/kg once daily, 28 days		serum enzyme activity	47.3 ± 13.3 U/L
Cn1nc(NS(C)(=O)=O)c2c(Cl)ccc(-n3c([C@H](Cc4cc(F)cc(F)c4)NC(=O)Cn4nc(C(F)F)c5c4C(F)(F)[C@@H]4C[C@H]54)nc4nc(OCCC(F)(F)F)ccc4c3=O)c21		human, plasma	oral, 625 mg single dose, powder in bottle, median		tmax	8 h
CC[C@H](C)[C@H](NC(=O)[C@H](C)NC(=O)CNC(=O)[C@H](CCCCN)NC(=O)[C@@H](NC(=O)[C@H](CC(C)C)NC(=O)[C@H](C)NC(=O)CNC(=O)[C@H](CC(C)C)NC(=O)[C@@H](N)Cc1ccccc1)[C@@H](C)CC)C(=O)N[C@@H](Cc1c[nH]cn1)C(=O)NCC(=O)NCC(=O)N[C@@H](CCCNC(=N)N)C(=O)N[C@@H](Cc1ccccc1)C(=O)N[C@H](C(=O)N[C@@H](Cc1c[nH]cn1)C(=O)NCC(=O)N[C@@H](CCSC)C(=O)N[C@H](C(=O)N[C@@H](CCC(N)=O)C(=O)N[C@@H](CC(N)=O)C(=O)N[C@@H](Cc1c[nH]cn1)C(=O)N[C@@H](Cc1c[nH]cn1)C(N)=O)[C@@H](C)CC)[C@@H](C)CC		zebrafish embryos 28 hpf, E3 medium	24 h		chronic toxic concentration	25 µM
NC1CCN(C(=O)Oc2ccc(C3CCCC4(C3)OOC3(O4)C4CC5CC(C4)CC3C5)cc2)CC1 (racemic)		male ICR mice, plasma	oral, 50 mg/kg		AUC(0-t)	6250 ng·h/mL

A few entries again:
SMILES	assay	system	setting	how to read	measurement	result
CC(C)C[C@H](NC(=O)[C@@H](NC(=O)[C@H](CCCNC(=N)N)NC(=O)[C@H](CCC(N)=O)NC(=O)[C@H](Cc1ccccc1)NC(=O)[C@H](Cc1ccc(O)cc1)NC(=O)[C@H](CC(N)=O)NC(=O)[C@H](Cc1c[nH]c2ccccc12)NC(=O)[C@@H](NC(=O)[C@H](CCCNC(=N)N)NC(=O)[C@H](CCCCN)NC(=O)[C@@H](N)Cc1ccccc1)C(C)C)C(C)C)C(=O)N[C@H](C(=O)N[C@@H](CCCCN)C(=O)N[C@@H](CCCCN)C(=O)N[C@@H](Cc1ccc(O)cc1)C(N)=O)C(C)C	reversed-phase UPLC	C18 column, TFA			elution acetonitrile content	45.3%
